Assay results of several laboratories.
A part holds a random share of what one study measured. Changes are numbered by the printed parent chain.

Sample 1
Target: Interferon regulatory factor 7, full length, phosphomimetic (IRF7, Homo sapiens, UniProt Q92985, residues 1-503, S101K/S471D/S472D/S475D/S476D/S477D/S483D/S484D/S487D)
Method: protein-binding microarray
Molecule type: double-stranded DNA, one strand shown
Sample: in vitro
Tested at: 250 nM
Notes: 60-bp whole probe
Together with: salmon DNA 0.4 mg/ml
Relative to: random background probes
Reading: higher = stronger binding
Shared flanks, not repeated: GCCTAGCAC … GTCTTGATTCGCTTGACGCTGCTG
Residues (chain): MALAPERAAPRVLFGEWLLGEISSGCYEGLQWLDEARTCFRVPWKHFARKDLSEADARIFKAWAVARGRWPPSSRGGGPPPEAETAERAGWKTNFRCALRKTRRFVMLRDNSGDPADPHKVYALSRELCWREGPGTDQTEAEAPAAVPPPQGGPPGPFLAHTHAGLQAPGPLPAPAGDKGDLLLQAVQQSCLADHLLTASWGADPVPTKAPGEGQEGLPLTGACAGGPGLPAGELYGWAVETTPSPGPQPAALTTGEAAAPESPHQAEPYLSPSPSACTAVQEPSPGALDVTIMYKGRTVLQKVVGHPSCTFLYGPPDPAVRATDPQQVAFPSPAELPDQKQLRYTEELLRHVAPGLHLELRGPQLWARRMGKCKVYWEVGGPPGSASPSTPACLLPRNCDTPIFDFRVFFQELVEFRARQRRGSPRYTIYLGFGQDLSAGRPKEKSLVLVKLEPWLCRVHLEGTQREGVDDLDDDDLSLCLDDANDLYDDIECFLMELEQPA
Sequence	log fluorescence [z-score]
AGAATTTCCACTTTGACTTAGTGCTAG	1.72
TTAGGTTTCGGGTATCGGATAGTGCTA	7.51
GGGAGCTATTAATTATTTTGGTGCTAG	-0.296
GACGGTCTCTGTCTCGGGACGTGCTAG	0.0644
GACGATATCAGGTATCGAGACGTGCTA	0.221
GACGGTATCGACACTGCGGACGTGCTA	-0.404
TGGGTATTTTTTCTGAACCAGTGCTAG	0.354
TTAGGTTTCGGGACTGGGTTTGTGCTA	3.73
TTAGAACTCAGTCTCGATTAGTGCTAG	1.39
TTAGGTTTGGGGTATCGGTTAGTGCTA	0.319
GACGGTATCGACTTTCGGGATGTGCTA	1.57
TTTGATATCAGTTTCGATTAGTGCTAG	8.67
GACGATTTCAGACTGGAGATGTGCTAG	0.0386
TTAGGCTTCGGTTCCGGTTAGTGCTAG	2.2
GACGGTTTCGGTTCCGAGACGTGCTAG	12.2
TTTGAACTGGGGTATCGATTAGTGCTA	0.166
TCATCTTTATGCACTCTCACTGTGCTA	0.152
TTAGGACTGGGTCTCGGTTGGTGCTAG	1.08
GACGGTATCGGTTTAGGGACGTGCTAG	5.68
GACGGTTACGACTTTCGGGACGTGCTA	0.288

Sample 2
Target: CCNB2, cyclin fold, Cln2 fusion (human)
Method: yeast growth competition, sequencing
Sample: yeast
Notes: weak parent motif
Relative to: not given
Reading: higher = stronger binding
Starting sequence: CDC25A docking peptide (human); PPHRRRLLFACSP; partner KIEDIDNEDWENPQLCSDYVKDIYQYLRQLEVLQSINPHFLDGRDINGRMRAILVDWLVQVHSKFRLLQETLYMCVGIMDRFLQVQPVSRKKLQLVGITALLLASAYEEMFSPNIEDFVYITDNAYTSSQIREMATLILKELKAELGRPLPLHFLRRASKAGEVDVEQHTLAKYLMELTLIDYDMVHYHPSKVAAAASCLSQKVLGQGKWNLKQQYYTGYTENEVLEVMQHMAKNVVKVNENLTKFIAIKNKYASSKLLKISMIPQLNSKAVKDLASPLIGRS
Substitution	normalised enrichment score
FPHRRRLLFACSP [P1F]	0.333
PPHRHRLLFACSP [R5H]	0.779
PFHRRRLLFACSP [P2F]	0.642
PPHRRRLLFAISP [C11I]	0.698
PPHRRRLLQACSP [F9Q]	0.546
PPPRRRLLFACSP [H3P]	0.197
PIHRRRLLFACSP [P2I]	0.661
PPHRERLLFACSP [R5E]	0.245
PPHRRMLLFACSP [R6M]	0.682
PPHRRRLLFAHSP [C11H]	0.805
PMHRRRLLFACSP [P2M]	0.643
PPHRRRLLFAYSP [C11Y]	0.316
PPYRRRLLFACSP [H3Y]	0.588
PPHRRRLLFACSS [P13S]	0.476
PRHRRRLLFACSP [P2R]	1.43
PPHARRLLFACSP [R4A]	0.705
PPRRRRLLFACSP [H3R]	0.784
PPHRRCLLFACSP [R6C]	0.243
PPHRNRLLFACSP [R5N]	0.111
PPHRRRLLFACSE [P13E]	0.265
PPHRPRLLFACSP [R5P]	0.235
VPHRRRLLFACSP [P1V]	0.361
PPHRRRLLFAESP [C11E]	0.388
PPHRVRLLFACSP [R5V]	0.889
PQHRRRLLFACSP [P2Q]	1.13

Sample 3
Target: Histone acetyltransferase KAT6A, winged helix 1, GST fusion (KAT6A, Homo sapiens, UniProt Q92794, residues 1-85)
Method: protein binding microarray
Molecule type: double-stranded DNA, one strand shown
Sample: in vitro
Tested at: not given
Notes: 8-mer, flanks averaged, mean of 2 arrays, mostly near background
Relative to: not given
Reading: higher = stronger binding
Target sequence (chain): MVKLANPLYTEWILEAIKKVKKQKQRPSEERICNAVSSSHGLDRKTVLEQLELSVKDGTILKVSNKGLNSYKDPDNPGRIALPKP
Sequence	E-score
CGAGATCC	0.0269
GAAACTCA	-0.13
TATAGTAA	0.0286
CACTTTAA	-0.137
GGTTTAGA	-0.0099
CTGAGTTC	-0.0644
GAGCGATA	0.00919
ACAACTAG	-0.0755
ACTCCGAC	0.111
ACTTCTAT	-0.32
AGGCAAGA	-0.164
TCCGTAAA	0.141
TCATGCAA	-0.16
ACTCCACG	0.042
AAGCTGAC	-0.0999
ACTCTCCC	-0.0337
CAAACTAC	-0.144
GGTAATGA	-0.0189
GCCCCGCC	0.325
ATGATCAT	-0.0149
ACTGCCAG	0.00409
GTATAGAC	-0.123
AGCACTGA	-0.248
CGTCGAAA	0.188
CACAATCC	-0.00322

Sample 4
Target: ABI1, truncated, D143A, DHFR fusion (Arabidopsis thaliana)
Method: DHFR PCA, deep sequencing
Sample: yeast
Notes: methotrexate growth selection, single substitutions
Together with: (+)-ABA 0.11 µM
Relative to: wild-type fitted maximum
Reading: higher = stronger binding
Starting sequence: PYL1, truncated, DHFR fusion (Arabidopsis thaliana); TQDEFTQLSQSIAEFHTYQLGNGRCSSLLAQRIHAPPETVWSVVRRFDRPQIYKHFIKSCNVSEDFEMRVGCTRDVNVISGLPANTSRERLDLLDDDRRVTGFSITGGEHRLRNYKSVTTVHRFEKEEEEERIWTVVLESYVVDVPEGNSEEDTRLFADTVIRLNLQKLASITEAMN; partner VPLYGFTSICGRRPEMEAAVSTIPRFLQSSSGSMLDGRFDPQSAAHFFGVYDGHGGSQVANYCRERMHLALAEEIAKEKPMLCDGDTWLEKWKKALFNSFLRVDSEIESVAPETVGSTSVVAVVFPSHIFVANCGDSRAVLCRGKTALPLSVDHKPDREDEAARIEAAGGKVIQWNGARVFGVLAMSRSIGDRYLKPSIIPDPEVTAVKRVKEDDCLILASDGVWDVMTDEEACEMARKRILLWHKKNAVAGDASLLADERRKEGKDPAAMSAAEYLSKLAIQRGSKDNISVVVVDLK
Substitution	relative binding score
D48C	-2.33%
I33G	2.57%
V44W	0.775%
E38S	9.72%
F15P	-2.4%
P36M	0.719%
V40F	-8.38%
R88N	12.4%
S104R	0.558%
F47M	-1.14%
C72E	23.4%
E174D	3.48%
L156K	2.16%

Sample 5
Target: Centromere-binding protein 1, full length, N-terminal tag (CBF1, Saccharomyces cerevisiae, UniProt P17106, residues 1-351)
Chain of UniProt P17106 (whole entry, looked up): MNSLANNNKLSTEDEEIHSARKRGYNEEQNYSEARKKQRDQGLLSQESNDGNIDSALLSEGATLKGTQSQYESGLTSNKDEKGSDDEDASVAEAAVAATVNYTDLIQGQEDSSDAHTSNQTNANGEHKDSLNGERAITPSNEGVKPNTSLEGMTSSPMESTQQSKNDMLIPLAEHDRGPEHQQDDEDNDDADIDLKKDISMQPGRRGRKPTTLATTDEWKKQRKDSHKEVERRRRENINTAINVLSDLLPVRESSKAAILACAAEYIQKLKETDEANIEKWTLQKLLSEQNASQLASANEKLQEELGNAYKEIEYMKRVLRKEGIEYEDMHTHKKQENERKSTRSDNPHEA
Method: protein-binding microarray
Molecule type: double-stranded DNA, one strand shown
Sample: in vitro
Tested at: 0.8 µM
Notes: whole 60-bp probe, no competitor
Reading: higher = stronger binding
Shared flanks, not repeated: … GTCTTGATTCGCTTGACGCTGCTG
Sequence	fluorescence intensity [a.u.]
CCTAACTACTATAAAAACGTGGGATAGCTTCGTACA	530
CTACATCCTCATCATCATCACTGTCTTCTTCATTTC	585
CTATGTATCTTTCATCACCCTTTTGAGAGAATGTTC	563
GAATTCTATTCTTCCAACGTGCGAAGCGTTCCATAG	544
CTATACGAAAATGTGCATGTTATCTATATCCTTTTC	533
CTAAAGCAAGTACACGTGCGCAAGTTGTACCAGTTC	6130
CCTAACTACTATAGTCACATTTTATAGCTTCGTACA	634
GAAGGGGAAGGCACAGGAGATACCCCCACTAAATAG	479
CTAAAACGTAGTTAAGGCCACGTGGGAAAGATATTC	6350
GAAATATTGCACGTTCCGACCACGATTATAGAGTAG	842
CTATATAATTCTCATCGTGATTTACTAGGTAAATTC	596
GAAGGCGCCACAGGGCACATGGAGTTTATTTATTAG	572
GAAAGAAAAACCGATCACGTACATCGATGTACGTAG	1040
TGTACGAAGCTATACGTGACAACTATAGTAGTTAGG	621
CTATTTTTCCGCTTTCGGGTGACACTTAATTTATTC	544
CTAGTCAAAAAGTGTCAATCACCTGGATGCATATTC	739
GAATCAGTGGAGTGTCACCCCGGGAAGATATTCTAG	512
GAATATACTTTATGTCTCGTGGGCATAAAAAGCTAG	820
TGTACGAAGCTATTAGTCGTGCTTATAGTAGTTAGG	532
CCTAACTACTATAGATACATCAGATAGCTTCGTACA	529
CTAACTAGACTGCGTGGTGTTGTTCAATTCAAATTC	540

Sample 6
Target: Transcriptional repressor CTCF (CTCF, Homo sapiens, UniProt P49711, residues 1-727, full length assumed)
Chain of UniProt P49711 (whole entry, looked up): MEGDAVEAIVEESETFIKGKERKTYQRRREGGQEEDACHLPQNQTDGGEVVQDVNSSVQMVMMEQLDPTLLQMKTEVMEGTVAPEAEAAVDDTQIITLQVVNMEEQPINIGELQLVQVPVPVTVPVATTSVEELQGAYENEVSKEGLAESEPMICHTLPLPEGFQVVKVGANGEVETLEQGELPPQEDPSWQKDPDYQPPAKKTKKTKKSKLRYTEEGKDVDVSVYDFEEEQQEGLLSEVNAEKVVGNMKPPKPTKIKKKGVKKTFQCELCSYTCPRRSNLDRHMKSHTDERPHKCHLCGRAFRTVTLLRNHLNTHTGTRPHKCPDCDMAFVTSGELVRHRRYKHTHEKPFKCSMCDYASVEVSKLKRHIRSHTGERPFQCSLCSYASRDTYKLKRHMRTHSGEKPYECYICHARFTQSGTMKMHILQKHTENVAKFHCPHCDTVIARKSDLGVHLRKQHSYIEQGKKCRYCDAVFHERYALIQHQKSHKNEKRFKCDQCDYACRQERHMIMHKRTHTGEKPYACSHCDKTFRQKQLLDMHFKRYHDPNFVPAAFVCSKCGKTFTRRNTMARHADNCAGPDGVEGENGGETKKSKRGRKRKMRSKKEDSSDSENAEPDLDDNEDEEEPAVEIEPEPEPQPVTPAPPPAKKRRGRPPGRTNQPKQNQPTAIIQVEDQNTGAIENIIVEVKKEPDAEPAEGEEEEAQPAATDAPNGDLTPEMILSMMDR
Method: protein-binding microarray
Molecule type: double-stranded DNA, one strand shown
Sample: in vitro
Tested at: not given
Notes: k-mer, scored over probes, only values ≥0.25
Reading: higher = stronger binding
Sequence	E-score
CACAATTA	0.281
AAATGTAT	0.321
TACGGTAA	0.252
ACTTACAC	0.262
GAAAAGGC	0.31
ATTAAATA	0.338
ATAACTTC	0.292
GTGCGCAC	0.363
ACATATAC	0.302
ACGGCGCA	0.282
TGTATACA	0.365
ACGTATAT	0.327
ACGCGCTA	0.355
ACTATATC	0.265
ATAATAAA	0.282
ATTTACTG	0.26
AAATTATC	0.338
CTGATAAA	0.294
GCGCAAAA	0.417
TAATTGCA	0.306
AATTAAAC	0.301
GGCGCCAC	0.273
ACCGCTAA	0.289
TTACGTAA	0.251

Other studies, line by line
Substance	target	test	system	conditions	scale	quantity	value
PhoQ, residues 284 288 289 292 302 303 HSYLQF	PhoP, residues 12 14 15 18 19 VQALL (Escherichia coli, UniProt P23836)	Sort-seq, item: YFP reporter	E. coli	PhoQ-PhoP variant library, together with: 10 µM Mg2+	relative to: high Mg2+ state, higher = stronger signaling	fold induction	22.3

Some of these lines once more (sample 6):
Sequence	E-score
ACGCGCTA	0.355
ATTAAATA	0.338
ACGGCGCA	0.282
TAATTGCA	0.306
ACATATAC	0.302
TGTATACA	0.365
ACTATATC	0.265
GCGCAAAA	0.417
AAATGTAT	0.321
CTGATAAA	0.294
AAATTATC	0.338
